Assay results of several laboratories.
Compare with care: the assays were run in different laboratories.

[O-][S+]1CCc2nc(N3CCC(c4ncc(Cl)cn4)CC3)nc(NC3(CO)CCC3)c21 (centres unmarked)
adverse event incidence (measured: Nausea; healthy male humans; 12 mg twice daily): 0%

COC(=O)c1ccc2c(c1)NC(=O)/C2=C(\Nc1ccc(N(C)C(=O)CN2CCN(C)CC2)cc1)c1ccccc1
maximum inhibition (human coronavirus OC43; virus-induced cell killing; MRC-5; maximum over 10 doses): 0%

Cc1cccc(Cn2nc(C3CC3)c3c(NC(=O)c4cnc5cc(OCCN6CCN(C)CC6)ccn45)cccc32)n1
adverse events incidence (measured: Constipation; human pancreatic ductal adenocarcinoma; oral, dose not given, all-causality): 25.9%

Cn1ncc(-c2nc(N[C@H]3CC[C@H](N)CC3)ncc2Cl)c1CC1CC1
adverse event incidence (measured: thrombocytopenia grade 3 or higher; human patients phase I; dose not given): 23%

Cn1cnc(N)c2ncnc1-2
maximum inhibition (human coronavirus OC43; virus-induced cell killing; MRC-5; screen): 2.57%

COc1ccc(C[C@@H]2NC(=O)[C@H]([C@@H](C)O)NC(=O)[C@@H]3[C@@H]4CCN3C(=O)[C@@H]3Cc5cn(c6ccc(F)cc56)CCCCCCN(Cc5ccc(cc5)CCNC(=O)[C@]5(C)CCCN5C2=O)C(=O)CCC(=O)N[C@@H](C)C(=O)N[C@H](CNC(=O)CCCCC[N+](C)(C)C)C(=O)N[C@@H](Cc2cccc(c2)CNC(=O)CO4)C(=O)N3)cc1
adverse events (measured: blurred vision; human; Study-003 safety): 3.2%

O=c1ccc2ncc(=O)n3c2n1C[C@H]3CN1CCC(NCc2cc3c(cn2)OCCC3)CC1
adverse event incidence (measured: vessel puncture site bruise; healthy human participants; oral, 1500 mg, added: rifampicin 600 mg): 0%

C[C@@H](c1nc(-c2ccc(C#N)cc2)cs1)[C@](O)(Cn1cncn1)c1cc(F)ccc1F
adverse event Erythema (healthy humans; oral, dose not given, added: midazolam): 8.7%

O=C(Nc1ccccc1)C1CCN(C(=O)Oc2cccnc2)CC1
adverse event incidence (measured: Disorientation; healthy female human; concentration not given, all doses pooled): 8%

O=C(c1ccc(F)c(F)c1Nc1ccc(I)cc1F)N1CC(O)([C@@H]2CCCCN2)C1
adverse events (human patients; oral, 1 mg/kg, dose expansion): 100%

Cc1ncc2n1-c1ccc(Cl)cc1C(c1ccccc1F)=NC2
adverse event Erythema (healthy humans; oral, dose not given): 0%

Repeated from above:
Cn1cnc(N)c2ncnc1-2
maximum inhibition (human coronavirus OC43; virus-induced cell killing; MRC-5; screen): 2.57%

COC(=O)c1ccc2c(c1)NC(=O)/C2=C(\Nc1ccc(N(C)C(=O)CN2CCN(C)CC2)cc1)c1ccccc1
maximum inhibition (human coronavirus OC43; virus-induced cell killing; MRC-5; maximum over 10 doses): 0%
